Measured values pooled from the literature.
A part holds a random share of what one study measured.

Series 1 — method: universal PBM; form: double-stranded DNA, one strand shown; medium: in vitro; concentration: not given; reading: higher = stronger binding
Target: Sal-like protein 4, full length isoform B (SALL4, Homo sapiens, UniProt Q9UJQ4-2, residues 1-616)
Setting: 8-mer, flanks averaged, mean of replicates
`CATGTACG` has an E-score of 0.0748.
With `TACAGGAA` the E-score was 0.129.
`CATGCGCG` has an E-score of -0.237.
`CAATAACG` has an E-score of 0.308.
The E-score of `CTTTAACC` is reported as 0.0687.
`CAGAAAAG` gave an E-score of -0.00039.
The E-score of `GCGACTCC` is reported as -0.252.
`CCCAAATA` gave an E-score of 0.0203.

Series 2 — method: protein-binding microarray; form: double-stranded DNA, one strand shown; medium: in vitro; concentration: 250 nM; setting: 60-bp whole probe; together with: salmon DNA 0.4 mg/ml; relative to: random background probes; reading: higher = stronger binding; shared flanks, not repeated: GCCTAGCAC … GTCTTGATTCGCTTGACGCTGCTG
Target: Interferon regulatory factor 5, full length, phosphomimetic (IRF5, Homo sapiens, UniProt Q13568-2, residues 1-514, K96S/S451D/S453D/S456D/S462D)
With `CAGAATCTCTCATGTTACATTGTGCTA` the log fluorescence was 0.36 z-score.
`TCATCTCTGGACTGTGTGACTGTGCTA` gave a log fluorescence of -0.165 z-score.
`TTCGAACTGAGTTTCGATTAGTGCTAG` gave a log fluorescence of 9.4 z-score.
`GGCGGTTTCCTACTGCTGACGTGCTAG` has a log fluorescence of 0.0779 z-score.
`GACGGTCTCGGCCTGGGGACGTGCTAG` has a log fluorescence of -0.378 z-score.
`TATGTTCACTATTTAAGGCCGTGCTAG` has a log fluorescence of 0.421 z-score.
The log fluorescence of `TATGTTCCTTATTTAAGACCGTGCTAG` is reported as 0.454 z-score.
`TTATAACTGAGTATCGATTAGTGCTAG` has a log fluorescence of 6.38 z-score.

Series 3 — method: RNA Bind-n-Seq; form: RNA; medium: in vitro; concentration: 20 nM; setting: 6-mer, flanks averaged, single round; together with: 150 mM LiCl; relative to: input library; reading: higher = stronger binding
Target: TAR DNA-binding protein 43, full length, His tag (TARDBP, Homo sapiens, UniProt Q13148, residues 1-414)
`UUGUUU` — result for “6-mer enrichment (R)”: 1.5.
`AGCACG` — result for “6-mer enrichment (R)”: 0.888.
`UAGACU` — result for “6-mer enrichment (R)”: 0.878.
`ACCAGC` — result for “6-mer enrichment (R)”: 0.881.
`ACACAC` — result for “6-mer enrichment (R)”: 0.886.
Under “6-mer enrichment (R)”, `UUACCU` is recorded as 0.955.
`GUCGGA`: “6-mer enrichment (R)” 1.16.
`CACAAG` — result for “6-mer enrichment (R)”: 0.836.

Other studies, line by line
`VTFGARASF`: binding “inactive” (HLA class I histocompatibility antigen, A alpha chain, allele A*80:01 (Homo sapiens, UniProt P04439); peptide-MHC binding; peptide; concentration not given).

Repeated from above (series 3):
`ACACAC` — result for “6-mer enrichment (R)”: 0.886.
Under “6-mer enrichment (R)”, `UUACCU` is recorded as 0.955.
`GUCGGA`: “6-mer enrichment (R)” 1.16.
`CACAAG` — result for “6-mer enrichment (R)”: 0.836.
